# Results collected from several papers.
# Lines come from different studies, so protocols differ. ± marks the error that the study gave. The star is where a group is joined.
# GNAI1: GNAI1 (Homo sapiens, UniProt P63096)
# UniProt P63096, sequence (whole entry, looked up): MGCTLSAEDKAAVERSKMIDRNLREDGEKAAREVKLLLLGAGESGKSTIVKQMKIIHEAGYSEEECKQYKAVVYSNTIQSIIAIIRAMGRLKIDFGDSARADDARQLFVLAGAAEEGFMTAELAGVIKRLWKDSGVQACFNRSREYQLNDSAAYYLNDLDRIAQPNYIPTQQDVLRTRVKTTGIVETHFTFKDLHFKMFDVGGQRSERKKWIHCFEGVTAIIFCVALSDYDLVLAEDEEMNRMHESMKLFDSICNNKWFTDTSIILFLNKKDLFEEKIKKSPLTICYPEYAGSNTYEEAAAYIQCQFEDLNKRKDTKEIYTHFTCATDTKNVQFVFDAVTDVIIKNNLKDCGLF
# B1: CIS43 Fab Fab (Homo sapiens); V domains shown; VH QVQLVQSGAEVKKPGASVKVSCKASGYTFTSYAIHWVRQAPGQRLEWMGWIKAGNGNTRYSQKFQDRVTITRDTSTTTAYMELSSLRSEDTAVYYCALLTVLTPDDAFDIWGQGTMVTVSS; VL DIVMTQSPDSLAVSLGERATINCKSSQSVLYSSNNKNYLAWYQQKPGQPPNLLIYWASTRQSGVPDRFSGSGSGTDFTLTISSLQAEDVAVYYCHQYYSSPLTFGGGTKVEIK
# B2: HUB1 1-73 (Saccharomyces cerevisiae, UniProt Q6Q546); chain MIEVVVNDRLGKKVRVKCLAEDSVGDFKKVLSLQIGTQPNKIVLQKGGSVLKDHISLEDYEVHDQTNLELYYL
# B3: EIF2AK2 K296R (Homo sapiens, UniProt P19525); sequence looked up; chain MAGDLSAGFFMEELNTYRQKQGVVLKYQELPNSGPPHDRRFTFQVIIDGREFPEGEGRSKKEAKNAAAKLAVEILNKEKKAVSPLLLTTTNSSEGLSMGNYIGLINRIAQKKRLTVNYEQCASGVHGPEGFHYKCKMGQKEYSIGTGSTKQEAKQLAAKLAYLQILSEETSVKSDYLSSGSFATTCESQSNSLVTSTLASESSSEGDFSADTSEINSNSDSLNSSSLLMNGLRNNQRKAKRSLAPRFDLPDMKETKYTVDKRFGMDFKEIELIGSGGFGQVFKAKHRIDGKTYVIRRVKYNNEKAEREVKALAKLDHVNIVHYNGCWDGFDYDPETSDDSLESSDYDPENSKNSSRSKTKCLFIQMEFCDKGTLEQWIEKRRGEKLDKVLALELFEQITKGVDYIHSKKLIHRDLKPSNIFLVDTKQVKIGDFGLVTSLKNDGKRTRSKGTLRYMSPEQISSQDYGKEVDLYALGLILAELLHVCDTAFETSKFFTDLRDGIISDIFDKKEKTLLQKLLSKKPEDRPNTSEILRTLTVWKKSPEKNERHTC
# UniProt P0A722, sequence (whole entry, looked up): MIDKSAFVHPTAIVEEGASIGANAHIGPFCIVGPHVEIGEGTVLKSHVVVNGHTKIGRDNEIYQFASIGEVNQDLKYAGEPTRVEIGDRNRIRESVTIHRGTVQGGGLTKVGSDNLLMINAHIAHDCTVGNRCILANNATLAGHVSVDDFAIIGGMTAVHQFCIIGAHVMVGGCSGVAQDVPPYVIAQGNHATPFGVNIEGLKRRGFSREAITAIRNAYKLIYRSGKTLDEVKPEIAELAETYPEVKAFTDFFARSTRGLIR
# UniProt P06400, sequence (whole entry, unmodified, looked up): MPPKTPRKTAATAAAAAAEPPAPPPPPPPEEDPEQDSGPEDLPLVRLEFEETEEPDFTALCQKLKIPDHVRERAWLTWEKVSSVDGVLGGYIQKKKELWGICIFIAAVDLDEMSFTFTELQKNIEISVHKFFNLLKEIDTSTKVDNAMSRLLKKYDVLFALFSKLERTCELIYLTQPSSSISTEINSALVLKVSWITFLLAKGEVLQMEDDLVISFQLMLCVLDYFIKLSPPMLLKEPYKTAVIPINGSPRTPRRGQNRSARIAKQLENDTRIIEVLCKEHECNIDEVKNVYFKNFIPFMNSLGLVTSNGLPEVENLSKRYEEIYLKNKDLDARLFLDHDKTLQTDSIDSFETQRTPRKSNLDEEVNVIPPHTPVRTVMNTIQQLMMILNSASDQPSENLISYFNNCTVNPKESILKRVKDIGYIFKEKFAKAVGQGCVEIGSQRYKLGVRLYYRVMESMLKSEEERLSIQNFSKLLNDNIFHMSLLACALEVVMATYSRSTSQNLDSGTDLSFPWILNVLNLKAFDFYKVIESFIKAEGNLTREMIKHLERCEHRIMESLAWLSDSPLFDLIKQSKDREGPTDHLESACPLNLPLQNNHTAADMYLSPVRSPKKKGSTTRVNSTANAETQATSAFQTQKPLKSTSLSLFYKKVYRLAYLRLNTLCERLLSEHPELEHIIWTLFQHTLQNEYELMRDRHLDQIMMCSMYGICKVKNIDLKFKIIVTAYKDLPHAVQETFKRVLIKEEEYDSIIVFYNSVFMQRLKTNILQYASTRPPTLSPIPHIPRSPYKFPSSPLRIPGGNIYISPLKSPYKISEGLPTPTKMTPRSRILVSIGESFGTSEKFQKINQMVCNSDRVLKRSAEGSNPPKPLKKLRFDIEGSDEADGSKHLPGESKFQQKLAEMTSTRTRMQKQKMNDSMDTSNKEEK
# UniProt P35222, sequence (whole entry, looked up): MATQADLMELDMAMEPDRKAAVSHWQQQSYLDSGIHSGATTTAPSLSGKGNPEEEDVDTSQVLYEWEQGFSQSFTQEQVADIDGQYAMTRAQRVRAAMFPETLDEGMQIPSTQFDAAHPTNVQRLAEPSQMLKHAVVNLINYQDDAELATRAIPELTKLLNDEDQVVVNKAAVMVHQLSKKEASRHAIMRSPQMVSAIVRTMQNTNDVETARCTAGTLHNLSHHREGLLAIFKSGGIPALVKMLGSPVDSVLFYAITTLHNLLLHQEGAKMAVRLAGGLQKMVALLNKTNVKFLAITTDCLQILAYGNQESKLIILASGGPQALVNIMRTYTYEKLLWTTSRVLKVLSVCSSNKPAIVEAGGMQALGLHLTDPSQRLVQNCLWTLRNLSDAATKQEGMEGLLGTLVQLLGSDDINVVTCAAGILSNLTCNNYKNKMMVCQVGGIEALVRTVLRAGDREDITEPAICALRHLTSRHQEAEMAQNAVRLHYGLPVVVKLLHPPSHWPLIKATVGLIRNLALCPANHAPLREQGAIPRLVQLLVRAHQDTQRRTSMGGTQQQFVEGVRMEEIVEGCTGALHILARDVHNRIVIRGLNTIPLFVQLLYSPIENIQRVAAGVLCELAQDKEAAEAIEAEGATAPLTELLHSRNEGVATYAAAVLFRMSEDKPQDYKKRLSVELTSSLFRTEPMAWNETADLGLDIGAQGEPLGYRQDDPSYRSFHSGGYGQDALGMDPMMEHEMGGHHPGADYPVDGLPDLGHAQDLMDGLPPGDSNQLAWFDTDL
Substance,partner,test,system,setting,scale,measurement,result
B1 (CIS43 Fab Fab),"CSP (Plasmodium falciparum, UniProt Q7K740)",BLI,Fab,25 °C,,binding,binds
M1 fragment (Influenza A virus),HLA-DRA/HLA-DRB1*04:05 soluble recombinant (Homo sapiens),ELISA,,,,IC50,4470 nM
VARKTRHVNILLFMG (BRAF 504-518 L505A),BRAF kinase domain with dimer interface,fluorescence titration,peptide,,,Kd,450 ± 30 nM
BILF1 H66A/F286A/H288A (Epstein-Barr virus),GNAI1,IP3 accumulation,HEK293,,"baseline: wild-type BILF1, higher = more signaling",relative Gi signaling,76%
B2 (HUB1 1-73),SNU66 N-terminal domain (Saccharomyces cerevisiae),SEC,,,,molecule per partner,2 Hub1 molecules
DLYCYEQLN (E7 residues 21-29 (human papillomavirus)),"RB1 55-787 del245-267/del582-642, phosphorylated by Cdk2-CycA (UniProt P06400)","Rb activation, E2F binding increase, activator, fluorescence polarisation",peptide,"20 nM, with: E2F^TMR",,EC50,190 ± 40 nM
BILF1 H288A (Epstein-Barr virus),GNAI1,IP3 accumulation,HEK293,,"baseline: wild-type BILF1, higher = more signaling",relative Gi signaling,98.9%
AALEAKICHQIEYYFGDF (La peptide 11-28 (UniProt P05455); FITC label; sequence looked up),"SSB 29-408 (Homo sapiens, UniProt P05455)",SEC,peptide,"2 h, pH 7.5, 37 °C, with: FITC-LAP 28 µM",,binding,binds
GVLRKTRHVNILLFMGYST (BRAF 503-521),BRAF kinase domain with dimer interface,fluorescence titration,peptide,,,Kd,3840 ± 320 nM
GLSQEQLEHRERSLQTLRDIQRMLFP (BCL9 350-375 (Homo sapiens); fluorescent label),"CTNNB1 (Homo sapiens, UniProt P35222)",FP,peptide,,,Kd,270 nM
GVLRKTRHVNILLFMG (BRAF 503-518),BRAF kinase domain with dimer interface,fluorescence titration,peptide,,,Kd,1880 ± 360 nM
B3 (EIF2AK2 K296R),PRKRA PACT domain 3,pull-down,,,"baseline: wild-type MBP-3, higher = more PKR bound",relative binding,100%
{FITC-βAla}-TNLYMLPKWDIP-NH2 (peptide; SMILES CC[C@H](C)[C@H](NC(=O)[C@H](CC(=O)O)NC(=O)[C@H](Cc1c[nH]c2ccccc12)NC(=O)[C@H](CCCCN)NC(=O)[C@@H]1CCCN1C(=O)[C@H](CC(C)C)NC(=O)[C@H](CCSC)NC(=O)[C@H](Cc1ccc(O)cc1)NC(=O)[C@H](CC(C)C)NC(=O)[C@H](CC(N)=O)NC(=O)[C@@H](NC(=O)CCNC(=S)Nc1ccc2c(c1)C(=O)OC21c2ccc(O)cc2Oc2cc(O)ccc21)[C@@H](C)O)C(=O)N1CCC[C@H]1C(N)=O; N-terminal β-Ala-fluorescein; FITC = O=C1OC2(c3ccc(O)cc3Oc3cc(O)ccc32)c2ccc(NC(=S)*)cc21; βAla = NCCC(=O)O),"lpxA (Escherichia coli, UniProt P0A722)",fluorescence polarisation,peptide,"pH 8.0, 30 °C, direct binding, Hill fit",,Kd,17000 ± 1600 nM
GVLLKTRHVNILLFMGYST (BRAF 503-521 R506L),BRAF kinase domain with dimer interface,fluorescence titration,peptide,,,Kd,540 ± 110 nM

# A few entries again:
Substance,partner,test,system,setting,scale,measurement,result
BILF1 H288A (Epstein-Barr virus),GNAI1,IP3 accumulation,HEK293,,"baseline: wild-type BILF1, higher = more signaling",relative Gi signaling,98.9%
B3 (EIF2AK2 K296R),PRKRA PACT domain 3,pull-down,,,"baseline: wild-type MBP-3, higher = more PKR bound",relative binding,100%
